Published values of several laboratories.
Each line is one published result; not all experiments were run side by side. Numbers after ± are the reported error.
Genome polyprotein NS2B-NS3 protease: Genome polyprotein, NS2B-NS3 protease (ZIKV, UniProt A0A024B7W1)
Chain of UniProt A0A024B7W1 (whole entry, looked up): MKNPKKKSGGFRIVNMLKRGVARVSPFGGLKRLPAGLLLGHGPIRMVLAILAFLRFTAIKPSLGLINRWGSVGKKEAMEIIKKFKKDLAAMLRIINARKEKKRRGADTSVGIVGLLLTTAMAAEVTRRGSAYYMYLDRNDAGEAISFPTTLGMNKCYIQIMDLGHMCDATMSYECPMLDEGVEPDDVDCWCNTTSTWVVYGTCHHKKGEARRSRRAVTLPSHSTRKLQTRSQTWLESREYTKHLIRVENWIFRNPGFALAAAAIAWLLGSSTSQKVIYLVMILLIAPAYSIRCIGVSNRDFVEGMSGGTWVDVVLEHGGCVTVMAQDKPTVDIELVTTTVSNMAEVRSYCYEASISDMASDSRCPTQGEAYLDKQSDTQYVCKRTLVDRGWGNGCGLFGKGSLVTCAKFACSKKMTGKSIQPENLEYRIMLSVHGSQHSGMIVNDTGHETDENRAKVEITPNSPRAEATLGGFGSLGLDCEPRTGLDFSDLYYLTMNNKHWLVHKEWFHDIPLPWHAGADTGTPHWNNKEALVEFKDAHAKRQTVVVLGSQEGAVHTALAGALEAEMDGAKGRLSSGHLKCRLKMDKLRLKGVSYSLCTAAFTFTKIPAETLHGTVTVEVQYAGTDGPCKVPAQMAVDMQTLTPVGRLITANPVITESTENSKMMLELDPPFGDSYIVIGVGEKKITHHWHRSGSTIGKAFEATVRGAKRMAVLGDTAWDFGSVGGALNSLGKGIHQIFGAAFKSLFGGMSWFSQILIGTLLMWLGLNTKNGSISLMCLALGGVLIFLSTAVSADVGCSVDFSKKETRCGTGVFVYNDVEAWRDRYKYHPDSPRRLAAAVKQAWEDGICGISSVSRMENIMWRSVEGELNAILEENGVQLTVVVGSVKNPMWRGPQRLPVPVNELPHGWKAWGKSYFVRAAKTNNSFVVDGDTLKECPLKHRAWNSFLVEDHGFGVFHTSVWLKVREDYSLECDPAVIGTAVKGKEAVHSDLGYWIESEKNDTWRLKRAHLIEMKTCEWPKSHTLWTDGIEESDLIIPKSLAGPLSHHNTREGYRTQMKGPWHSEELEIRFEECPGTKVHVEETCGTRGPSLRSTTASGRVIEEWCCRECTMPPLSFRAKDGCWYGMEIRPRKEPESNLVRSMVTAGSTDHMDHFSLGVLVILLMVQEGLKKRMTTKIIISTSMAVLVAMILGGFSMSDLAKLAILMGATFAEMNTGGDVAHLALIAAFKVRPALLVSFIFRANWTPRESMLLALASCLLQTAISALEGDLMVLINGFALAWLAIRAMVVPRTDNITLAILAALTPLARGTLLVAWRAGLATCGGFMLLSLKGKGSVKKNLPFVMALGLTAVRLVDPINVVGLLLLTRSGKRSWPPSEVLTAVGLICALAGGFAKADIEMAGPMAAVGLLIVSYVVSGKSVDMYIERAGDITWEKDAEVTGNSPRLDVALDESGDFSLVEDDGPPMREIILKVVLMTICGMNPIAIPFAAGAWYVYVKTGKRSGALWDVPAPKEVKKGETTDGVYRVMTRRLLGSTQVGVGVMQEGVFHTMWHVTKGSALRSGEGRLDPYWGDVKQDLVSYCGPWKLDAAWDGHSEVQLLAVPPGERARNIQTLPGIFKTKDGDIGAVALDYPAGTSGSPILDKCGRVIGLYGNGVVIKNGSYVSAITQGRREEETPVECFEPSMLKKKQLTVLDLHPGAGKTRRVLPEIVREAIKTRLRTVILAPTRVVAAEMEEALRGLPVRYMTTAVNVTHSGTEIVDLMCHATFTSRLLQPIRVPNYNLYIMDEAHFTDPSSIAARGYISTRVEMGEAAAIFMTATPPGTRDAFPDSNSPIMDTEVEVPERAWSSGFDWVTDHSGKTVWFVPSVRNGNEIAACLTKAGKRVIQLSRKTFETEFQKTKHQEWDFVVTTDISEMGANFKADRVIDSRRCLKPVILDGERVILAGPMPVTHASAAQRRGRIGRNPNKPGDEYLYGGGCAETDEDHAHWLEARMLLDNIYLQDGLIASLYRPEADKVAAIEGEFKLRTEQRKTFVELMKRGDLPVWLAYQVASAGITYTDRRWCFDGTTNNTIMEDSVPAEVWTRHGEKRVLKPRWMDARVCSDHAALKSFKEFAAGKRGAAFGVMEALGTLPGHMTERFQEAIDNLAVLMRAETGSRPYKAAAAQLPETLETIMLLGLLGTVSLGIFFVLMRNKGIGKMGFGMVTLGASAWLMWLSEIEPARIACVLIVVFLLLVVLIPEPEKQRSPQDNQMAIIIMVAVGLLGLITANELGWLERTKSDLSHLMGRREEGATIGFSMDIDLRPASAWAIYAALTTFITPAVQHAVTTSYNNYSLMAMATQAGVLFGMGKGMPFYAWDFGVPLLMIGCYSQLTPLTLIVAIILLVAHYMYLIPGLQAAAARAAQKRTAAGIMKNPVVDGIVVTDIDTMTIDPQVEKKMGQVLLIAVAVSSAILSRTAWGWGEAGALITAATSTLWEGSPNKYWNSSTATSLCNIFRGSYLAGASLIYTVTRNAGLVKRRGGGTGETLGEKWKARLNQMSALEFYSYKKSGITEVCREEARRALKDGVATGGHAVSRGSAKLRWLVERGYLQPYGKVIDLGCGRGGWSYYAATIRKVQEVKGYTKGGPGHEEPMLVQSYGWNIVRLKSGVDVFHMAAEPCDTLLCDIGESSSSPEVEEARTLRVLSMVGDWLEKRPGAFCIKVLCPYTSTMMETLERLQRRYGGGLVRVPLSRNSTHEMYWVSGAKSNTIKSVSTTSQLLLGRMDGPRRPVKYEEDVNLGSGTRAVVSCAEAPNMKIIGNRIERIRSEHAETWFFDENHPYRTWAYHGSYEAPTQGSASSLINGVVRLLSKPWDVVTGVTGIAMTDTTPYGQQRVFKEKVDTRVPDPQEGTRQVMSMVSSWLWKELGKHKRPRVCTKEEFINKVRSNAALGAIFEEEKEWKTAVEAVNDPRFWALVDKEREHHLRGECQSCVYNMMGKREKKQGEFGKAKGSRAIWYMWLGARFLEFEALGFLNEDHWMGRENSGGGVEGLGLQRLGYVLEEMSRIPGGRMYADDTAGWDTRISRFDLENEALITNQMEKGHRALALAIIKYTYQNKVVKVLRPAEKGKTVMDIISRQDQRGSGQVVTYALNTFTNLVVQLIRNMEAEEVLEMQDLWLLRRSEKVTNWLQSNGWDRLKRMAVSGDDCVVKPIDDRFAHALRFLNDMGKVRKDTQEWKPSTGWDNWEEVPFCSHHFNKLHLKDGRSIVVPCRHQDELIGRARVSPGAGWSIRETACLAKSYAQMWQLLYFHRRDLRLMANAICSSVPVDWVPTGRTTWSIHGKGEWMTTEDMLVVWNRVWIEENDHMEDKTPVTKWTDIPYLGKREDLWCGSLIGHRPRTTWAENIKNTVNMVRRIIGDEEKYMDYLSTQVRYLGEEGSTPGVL
MGLL: Monoglyceride lipase (MGLL, Homo sapiens, UniProt Q99685)
Chain of UniProt P28074 (whole entry, looked up): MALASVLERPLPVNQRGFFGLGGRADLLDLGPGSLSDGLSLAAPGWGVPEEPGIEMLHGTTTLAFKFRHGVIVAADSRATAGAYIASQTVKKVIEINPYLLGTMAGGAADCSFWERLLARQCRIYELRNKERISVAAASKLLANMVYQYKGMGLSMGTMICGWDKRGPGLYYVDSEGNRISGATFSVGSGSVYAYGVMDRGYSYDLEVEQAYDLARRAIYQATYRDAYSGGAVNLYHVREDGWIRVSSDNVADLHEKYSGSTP
Chain of UniProt Q99685 (whole entry, looked up): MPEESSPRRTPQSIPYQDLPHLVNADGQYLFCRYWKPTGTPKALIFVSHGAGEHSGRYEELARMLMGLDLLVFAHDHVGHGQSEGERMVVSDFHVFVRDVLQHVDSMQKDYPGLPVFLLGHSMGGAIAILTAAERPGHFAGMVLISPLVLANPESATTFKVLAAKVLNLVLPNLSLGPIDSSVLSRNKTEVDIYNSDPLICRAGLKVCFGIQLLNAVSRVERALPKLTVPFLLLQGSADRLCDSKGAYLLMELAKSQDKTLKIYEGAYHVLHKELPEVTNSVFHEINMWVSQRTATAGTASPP
Chain of UniProt P20618 (whole entry, looked up): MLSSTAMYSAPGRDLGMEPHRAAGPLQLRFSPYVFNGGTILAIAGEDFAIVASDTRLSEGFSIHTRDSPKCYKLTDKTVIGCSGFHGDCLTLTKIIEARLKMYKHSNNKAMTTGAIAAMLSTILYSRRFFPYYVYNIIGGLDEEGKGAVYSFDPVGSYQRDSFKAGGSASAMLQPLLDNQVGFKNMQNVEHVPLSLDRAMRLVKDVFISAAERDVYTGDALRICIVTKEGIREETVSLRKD
Chain of UniProt P42573 (whole entry, looked up): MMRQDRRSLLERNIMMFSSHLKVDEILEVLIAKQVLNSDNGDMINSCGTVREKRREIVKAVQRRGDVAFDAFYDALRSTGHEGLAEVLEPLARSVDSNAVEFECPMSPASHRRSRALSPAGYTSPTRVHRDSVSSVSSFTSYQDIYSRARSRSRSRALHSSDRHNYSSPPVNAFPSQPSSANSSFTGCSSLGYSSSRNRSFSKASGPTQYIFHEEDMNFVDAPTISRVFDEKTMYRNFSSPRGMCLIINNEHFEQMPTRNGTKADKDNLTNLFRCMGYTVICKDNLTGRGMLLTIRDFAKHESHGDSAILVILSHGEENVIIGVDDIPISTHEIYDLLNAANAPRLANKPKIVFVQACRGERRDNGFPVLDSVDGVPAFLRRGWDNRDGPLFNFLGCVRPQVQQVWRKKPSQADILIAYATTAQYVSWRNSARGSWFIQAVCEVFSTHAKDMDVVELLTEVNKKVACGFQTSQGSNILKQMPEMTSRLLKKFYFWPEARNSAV
Chain of UniProt P49888 (whole entry, looked up): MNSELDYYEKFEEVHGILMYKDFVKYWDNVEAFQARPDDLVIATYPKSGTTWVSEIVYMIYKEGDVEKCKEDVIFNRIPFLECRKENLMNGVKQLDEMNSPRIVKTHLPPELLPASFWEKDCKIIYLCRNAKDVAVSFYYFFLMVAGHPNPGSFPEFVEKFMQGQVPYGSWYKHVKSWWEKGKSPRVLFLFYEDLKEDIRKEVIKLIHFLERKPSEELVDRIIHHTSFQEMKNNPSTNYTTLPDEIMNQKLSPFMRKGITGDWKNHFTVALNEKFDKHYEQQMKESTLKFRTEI

Substance = O=C(NC1CCc2ccccc2C1)c1ccc(-c2ccccc2)cc1 (stereo not shown); target or system = Transient receptor potential cation channel subfamily M member 8 (TRPM8, Homo sapiens, UniProt Q7Z2W7); test = calcium signal, antagonist, fluorescence; quantity = IC50; value = 0.052 µM
Substance = C=C(NC(=O)C(=C)NC(=O)c1csc(C2=N[C@@H]3c4csc(n4)[C@H]4NC(=O)c5csc(n5)[C@H]([C@](C)(O)[C@@H](C)O)NC(=O)[C@H]5CSC(=N5)/C(=C/C)NC(=O)[C@H]([C@@H](C)O)NC(=O)c5csc(n5)[C@]3(CC2)NC(=O)[C@H](C)NC(=O)C(=C)NC(=O)[C@H](C)NC(=O)[C@H]([C@@H](C)CC)N[C@@H]2C=Cc3c([C@H](C)O)cc(nc3[C@H]2O)C(=O)O[C@@H]4C)n1)C(N)=O; target or system = Proteasome Macropain subunit MB1 (PSMB5, Homo sapiens, UniProt P28074); test = chymotrypsin-like activity, inhibitor; test system = purified 20S proteasome; setting = 15 min preincubation, 37 °C, together with: Suc-Leu-Leu-Val-Tyr-AMC substrate; quantity = IC50; value = 1.02 ± 0.12 µM
Substance = NC[C@@H]1O[C@H](O[C@H]2[C@@H](O)[C@H](O[C@@H]3[C@@H](O)[C@H](N)C[C@H](N)[C@H]3O[C@H]3O[C@H](CN)[C@@H](O)[C@H](O)[C@H]3N)O[C@@H]2Cn2cc(COCc3cn(C[C@H]4O[C@@H](O[C@@H]5[C@@H](O)[C@H](N)C[C@H](N)[C@H]5O[C@H]5O[C@H](CN)[C@@H](O)[C@H](O)[C@H]5N)[C@H](O)[C@@H]4O[C@H]4O[C@@H](CN)[C@@H](O)[C@H](O)[C@H]4N)nn3)nn2)[C@H](N)[C@@H](O)[C@@H]1O; target or system = HIV-1 TAR RNA; test = Tat peptide binding, FRET competition; setting = pH 7.4, 25 °C; quantity = IC50; value = 0.077 ± 0.027 µM
Substance = Ic1ccc(-c2ncc(OCCCC3CCNCC3)nc2-c2ccc(I)cc2)cc1; target or system = Genome polyprotein NS2B-NS3 protease; test = inhibitor; test system = Zika virus; quantity = IC50; value = > 10 µM
Substance = O=C1OC2(c3cc(Br)c(O)cc3Oc3cc(O)c(Br)cc32)c2ccccc21; target or system = Dual specificity protein phosphatase 5 (Homo sapiens, UniProt Q16690); test = phosphatase activity; setting = 30 min, without DTT, together with: pNPP; quantity = IC50; value = 90.9 ± 4.5 µM
Substance = COc1ccc(/C=C(\C#N)c2ccc([N+](=O)[O-])cc2)cc1; target or system = DNA topoisomerase 1 (topA, Escherichia coli, UniProt P06612); test = enzyme activity, inhibitor; quantity = IC50; value = > 250 µM
Substance = CCN(CC)C(C)CN1c2ccccc2Sc2ccccc21 (stereo not shown); target or system = Dugesia japonica cholinesterase; test = enzyme activity; test system = planarian homogenate; setting = 5 min, together with: butyrylthiocholine 0.1 mM; quantity = IC50; value = 91 ± 0.00021 µM
Substance = O=C(O)c1cc(O)c(O)c(O)c1; target or system = DNA oxidative demethylase ALKBH2 (ALKBH2, Homo sapiens, UniProt Q6NS38); test = 1-methyladenine repair, inhibitor, HPLC; setting = 1 h, 37 °C, together with: ssDNA 16mer 5 µM; quantity = IC50; value = 30.9 µM
Substance = CCCCC/C=C\C/C=C\C/C=C\C/C=C\CCCCN1C(=O)C=CC1=O; target or system = MGLL; test = enzyme activity, inhibitor; setting = together with: AHMMCE; quantity = IC50; value = 2.8 µM
Substance = CC(C)(C)OC(=O)N[C@H](C(=O)O)[C@@H]1CC(Br)=NO1; target or system = CTP synthase (Trypanosoma brucei brucei, UniProt Q4GZ95); test = enzyme activity, inhibitor, coupled spectrophotometric; setting = pre-incubated with enzyme; quantity = IC50; value = 0.043 ± 0.003 µM
Substance = CCCCCOc1cc2c(cc1-c1cc(/C=C/C(=O)O)ccc1O)C(C)(C)CCC2(C)C; target or system = Retinoic acid receptor RXR-alpha (RXRA, Homo sapiens, UniProt P19793); test = ligand displacement, FP; quantity = IC50; value = 1.8 µM
Substance = O=C1NC(=S)NC(=O)C1=Cc1cn(Cc2cccc3ccccc23)c2ccc(Br)cc12; target or system = DNA polymerase eta (POLH, Homo sapiens, UniProt Q9Y253); test = enzyme activity, inhibitor, fluorescence; quantity = IC50; value = 8 µM
Substance = Cc1sc2nc(-c3cccc(C(F)(F)F)c3)[nH]c(=O)c2c1C; target or system = Gag-Pol polyprotein, reverse transcriptase RNase H (gag-pol, Human immunodeficiency virus 1, UniProt P03366); test = RNase H activity, inhibitor, fluorescent RNA/DNA hybrid; quantity = IC50; value = > 50 µM
Substance = C[C@H](NC(=O)Cc1cc(F)cc(F)c1)C(=O)N[C@H]1N=C(c2ccccc2)c2ccccc2N(C)C1=O; target or system = gamma-secretase complex (Cricetulus griseus, UniProt A0A061HTR1+A0A061IL97+A0A8C2QG42+G3HNF2); test = APLP2 ICD production, inhibitor; test system = APLP2-His CHO cell microsomes; setting = 37 °C; quantity = IC50; value = 0.0053 µM
Substance = CN[C@H]1C(=O)N[C@@H]2Cc3ccc(cc3)Oc3cc4cc(c3O[C@@H]3O[C@H](C(=O)O)[C@@H](O)[C@H](O)[C@H]3NC(=O)CCCCCCCCC(C)C)Oc3ccc(cc3Cl)[C@@H](O)[C@@H]3NC(=O)[C@H](NC(=O)[C@@H]4NC(=O)[C@@H](NC2=O)c2cc(cc(O)c2Cl)Oc2cc1ccc2O)c1ccc(O)c(c1)-c1c(O[C@H]2O[C@H](CO)[C@@H](O)[C@H](O)[C@@H]2O)cc(O)cc1[C@@H](C(=O)NCCCN(C)C)NC3=O; target or system = CRISPR-associated endonuclease Cas9 (cas9, Staphylococcus aureus, UniProt J7RUA5); test = genome editing, inhibitor, PCR genotyping; test system = Escherichia coli, MG1655; setting = Staphylococcus aureus Cas9; quantity = IC50; value = 12.5 to 25 µM
Substance = CCOP(=O)(OCC)Oc1nc(Cl)c(Cl)cc1Cl; target or system = muscarinic receptors, rat; test = radioligand displacement; test system = adult cortex membranes; setting = 90 min, 21 °C, together with: 1 nM [3H]oxotremorine-M; quantity = IC50; value = 0.007 µM
Substance = CN[C@@](C)(C[18F])C(=O)O; test system = SCID mouse MDA-MB-468 xenograft, pancreas; setting = 120 min, post injection; quantity = tissue uptake; value = 19 ± 2.5 %ID/g
Substance = Nc1ccn([C@H]2C[C@H](O)[C@@H](COP(=O)(O)NP(=O)(O)OP(=O)(O)O)O2)c(=O)n1; target or system = Deoxynucleoside triphosphate triphosphohydrolase SAMHD1 (SAMHD1, Homo sapiens, UniProt Q9Y3Z3); test = enzyme activity, inhibitor; quantity = IC50; value = 0.083 µM
Substance = O=C1C2CC=CCC2C(=O)N1c1n[nH]c(Cc2ccccc2)n1 (stereo not shown); target or system = Alkaline phosphatase, tissue-nonspecific isozyme (ALPL, Homo sapiens, UniProt P05186); test = enzyme activity, inhibitor, luminescence; setting = together with: CDP-star substrate, 100 mM DEA; quantity = IC50; value = 0.236 µM
Substance = CNC(=O)OCC[N+](C)(C)C; target or system = Neuronal acetylcholine receptor subunit alpha-4/beta-2 (Mus musculus, UniProt O70174+Q9ERK7); test = receptor desensitisation; test system = mouse thalamic synaptosomes; setting = 10 min; quantity = IC50; value = 0.0507 ± 0.0083 µM
Substance = COc1ccc(C[C@H](NC(=O)[C@H](C)NC(=O)c2ccc(-c3ccc(C(C)=O)cc3)o2)C(=O)N[C@@H](CC(C)C)C(=O)C(=O)Nc2ccccc2)cc1; target or system = Proteasome component C5/PSMB5, chymotrypsin-like site (Homo sapiens, UniProt P20618+P28074); test = enzyme activity in cells, inhibitor; quantity = IC50; value = 0.0507 µM
Substance = CCCCCCCCCN1[C@H](CO)[C@@H](O)[C@@H]1CO; target or system = Non-lysosomal glucosylceramidase (Gba2, Rattus norvegicus, UniProt Q5M868); test = inhibitor; test system = Long Evans rat, testis microsomes; setting = together with: 4-methylumbelliferyl glucoside; quantity = IC50; value = > 300 µM
Substance = NCc1ccc(-c2ncc(OCC3CCNCC3)nc2-c2ccc3nc[nH]c3c2)cc1; target or system = Genome polyprotein NS2B-NS3 protease; test = inhibitor; test system = Zika virus; quantity = IC50; value = 2.22 µM
Substance = Oc1ccc(-c2ccc(-c3ccc(O)cc3)[se]2)cc1; target or system = Estrogen receptor beta (ESR2, Homo sapiens, UniProt Q92731); test = antagonist; test system = HEK293T; setting = together with: estradiol 10 nM; quantity = IC50; value = 0.028 µM
Substance = C/C=C1\NC(=O)[C@@H](NC(=O)[C@@H](NC(=O)[C@H](C)NC(=O)C/C(C)=C/Cl)[C@@H](C)CC)[C@@H](C)OC(=O)[C@H](C(C)C)NC(=O)[C@H](Cc2ccc(O)cc2)N(C)C(=O)[C@H](Cc2ccccc2)N2C(=O)[C@H](CC[C@H]2O)NC1=O; target or system = Chymotrypsinogen B (Homo sapiens, UniProt P17538); test = enzyme activity, inhibitor, fluorescence; setting = pH 7.4; quantity = IC50; value = 1.01 µM
Substance = COc1ccc(N2C(=O)/C(=C/c3ccco3)C(=O)NC2=S)cc1; target or system = Cell death protein 3 (ced-3, Caenorhabditis elegans, UniProt P42573); test = enzyme activity, inhibitor; test system = purified enzyme; setting = together with: 20 µM Ac-DEVD-AMC; quantity = IC50; value = 1.5 µM
Substance = NCc1ccc(-c2ncc(OCC3CCNCC3)nc2CCN2CCOCC2)cc1; target or system = Genome polyprotein NS2B-NS3 protease; test = inhibitor; test system = Zika virus; quantity = IC50; value = > 50 µM
Substance = O=S(=O)(O)Oc1ccc(-c2cccc(Cl)c2)cc1Cl; target or system = Sulfotransferase 1E1 (SULT1E1, Homo sapiens, UniProt P49888); test = enzyme activity, inhibitor, radiometric; setting = pH 7.4; quantity = IC50; value = > 10 µM
Substance = Phoxim oxon; target or system = rat liver carboxylesterase; test = enzyme activity, inhibitor; test system = rat, postnatal day 12, liver homogenate; setting = together with: p-nitrophenyl valerate; quantity = IC50; value = 0.0002 µM
Substance = O=C(OC(C(F)(F)F)C(F)(F)F)N1CCC(Cn2ccc3ccc(F)cc32)CC1; target or system = MGLL; test = enzyme activity, inhibitor; quantity = IC50; value = 0.55 µM
Substance = C[C@H]1[C@@H](CC(=O)NCCCC(=O)N[C@@H](CC(=O)NC(C)(C)C)C(=O)NCCNC(=O)c2cc(-c3ccccc3F)ccc2F)O[C@@H]2O[C@@]3(C)CC[C@H]4[C@H](C)CC[C@@H]1[C@@]24O3; target or system = Proteasome component C5/PSMB5 (Homo sapiens, UniProt P20618+P28074); test = inhibitor; test system = constitutive 20S proteasome; setting = together with: suc-LLVY-AMC substrate; quantity = IC50; value = 1.1 ± 0.046 µM
Substance = [Br-].[Na+]; target or system = Beta-lactamase OXA-48 (OXA-48, Klebsiella pneumoniae, UniProt Q6XEC0, del214-217/S212D); test = enzyme activity, inhibitor; setting = pH 7.2, with preincubation; quantity = IC50; value = 29000 µM
Substance = CC(=O)OO; target or system = Helix pomatia arylsulfatase; test = enzyme activity; setting = 1 h, pH 5.8, 37 °C, together with: p-nitrophenyl sulfate; quantity = IC50; value = 43.5 ± 2.92 µM
Substance = C[C@]12CC[C@H](O)C[C@H]1CC[C@@H]1[C@@H]2CC[C@]2(C)[C@@H](C3=CC(=O)OC3)CC[C@]12O; target or system = Na+/K+-ATPase (pig cerebral cortex); test = enzyme activity, inhibitor, phosphate release colorimetric; setting = 30 min, 37 °C, together with: ATP-Mg 3 mM; quantity = IC50; value = 1.65 ± 0.09 µM
